Assay results collected from several papers.
Every numbered part comes from another study and shows a few of its results, in no order. “And” joins repeats or separate records; there may be more than shown.
Chain of UniProt Q16832 (whole entry, looked up): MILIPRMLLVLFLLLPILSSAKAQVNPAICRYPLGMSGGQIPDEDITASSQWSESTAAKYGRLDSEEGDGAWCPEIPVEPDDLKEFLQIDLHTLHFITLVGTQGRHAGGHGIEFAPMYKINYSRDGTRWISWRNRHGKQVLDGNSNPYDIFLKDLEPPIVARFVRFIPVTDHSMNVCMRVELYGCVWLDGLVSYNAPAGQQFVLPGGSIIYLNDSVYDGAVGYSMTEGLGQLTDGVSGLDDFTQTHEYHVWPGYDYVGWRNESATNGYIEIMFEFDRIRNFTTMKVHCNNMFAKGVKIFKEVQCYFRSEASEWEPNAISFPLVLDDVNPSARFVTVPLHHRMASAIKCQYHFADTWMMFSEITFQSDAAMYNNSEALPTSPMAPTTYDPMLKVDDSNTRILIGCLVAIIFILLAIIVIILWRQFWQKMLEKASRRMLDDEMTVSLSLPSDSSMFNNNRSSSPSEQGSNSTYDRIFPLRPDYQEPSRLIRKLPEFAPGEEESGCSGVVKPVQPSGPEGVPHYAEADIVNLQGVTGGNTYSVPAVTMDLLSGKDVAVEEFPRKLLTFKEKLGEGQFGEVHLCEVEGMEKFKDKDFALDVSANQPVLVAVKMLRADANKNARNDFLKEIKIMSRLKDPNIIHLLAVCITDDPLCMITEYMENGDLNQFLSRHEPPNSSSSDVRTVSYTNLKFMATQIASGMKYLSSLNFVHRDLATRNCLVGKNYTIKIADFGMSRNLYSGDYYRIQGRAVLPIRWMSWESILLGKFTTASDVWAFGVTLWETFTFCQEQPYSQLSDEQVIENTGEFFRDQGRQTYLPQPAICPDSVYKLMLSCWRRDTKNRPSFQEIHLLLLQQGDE
Chain of UniProt Q6P2M8 (whole entry, looked up): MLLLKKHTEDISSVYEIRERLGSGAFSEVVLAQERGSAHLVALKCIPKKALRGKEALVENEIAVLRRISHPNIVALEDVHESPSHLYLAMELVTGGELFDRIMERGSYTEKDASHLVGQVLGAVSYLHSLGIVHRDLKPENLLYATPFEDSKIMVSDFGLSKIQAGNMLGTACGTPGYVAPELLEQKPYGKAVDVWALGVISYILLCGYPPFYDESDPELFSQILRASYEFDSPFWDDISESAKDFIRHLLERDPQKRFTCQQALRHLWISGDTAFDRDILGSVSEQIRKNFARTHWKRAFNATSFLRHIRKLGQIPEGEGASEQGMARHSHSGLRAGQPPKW
Chain of UniProt P49760 (whole entry, looked up): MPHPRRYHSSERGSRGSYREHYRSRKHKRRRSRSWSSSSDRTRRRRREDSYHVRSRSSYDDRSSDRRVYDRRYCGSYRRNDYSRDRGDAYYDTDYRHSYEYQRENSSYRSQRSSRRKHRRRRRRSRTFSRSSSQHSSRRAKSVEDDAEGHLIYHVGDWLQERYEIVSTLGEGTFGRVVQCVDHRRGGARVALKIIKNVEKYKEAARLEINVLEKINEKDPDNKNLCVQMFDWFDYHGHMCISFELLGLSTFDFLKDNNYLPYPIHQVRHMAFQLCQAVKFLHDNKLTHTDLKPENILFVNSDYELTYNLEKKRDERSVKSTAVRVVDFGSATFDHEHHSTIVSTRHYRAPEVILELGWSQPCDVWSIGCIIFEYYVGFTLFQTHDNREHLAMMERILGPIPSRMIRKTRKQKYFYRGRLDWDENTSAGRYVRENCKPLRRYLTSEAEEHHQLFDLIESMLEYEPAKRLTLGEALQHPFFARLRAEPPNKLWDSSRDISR
Chain of UniProt O75914 (whole entry, looked up): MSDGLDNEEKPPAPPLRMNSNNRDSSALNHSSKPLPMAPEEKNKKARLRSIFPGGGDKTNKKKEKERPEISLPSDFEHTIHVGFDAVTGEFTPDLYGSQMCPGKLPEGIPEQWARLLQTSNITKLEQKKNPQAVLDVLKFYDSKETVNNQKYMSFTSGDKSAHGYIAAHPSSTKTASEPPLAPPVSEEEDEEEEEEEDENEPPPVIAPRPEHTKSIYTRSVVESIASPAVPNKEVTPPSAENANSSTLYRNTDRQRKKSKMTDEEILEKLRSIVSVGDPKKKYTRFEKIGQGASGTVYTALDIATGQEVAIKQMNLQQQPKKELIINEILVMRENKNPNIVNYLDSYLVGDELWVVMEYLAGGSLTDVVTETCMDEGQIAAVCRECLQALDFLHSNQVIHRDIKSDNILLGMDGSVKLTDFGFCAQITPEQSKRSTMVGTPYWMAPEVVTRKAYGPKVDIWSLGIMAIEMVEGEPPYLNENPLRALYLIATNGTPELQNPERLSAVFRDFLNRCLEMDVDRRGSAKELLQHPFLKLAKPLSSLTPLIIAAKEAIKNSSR
Chain of UniProt Q8N752 (whole entry, looked up): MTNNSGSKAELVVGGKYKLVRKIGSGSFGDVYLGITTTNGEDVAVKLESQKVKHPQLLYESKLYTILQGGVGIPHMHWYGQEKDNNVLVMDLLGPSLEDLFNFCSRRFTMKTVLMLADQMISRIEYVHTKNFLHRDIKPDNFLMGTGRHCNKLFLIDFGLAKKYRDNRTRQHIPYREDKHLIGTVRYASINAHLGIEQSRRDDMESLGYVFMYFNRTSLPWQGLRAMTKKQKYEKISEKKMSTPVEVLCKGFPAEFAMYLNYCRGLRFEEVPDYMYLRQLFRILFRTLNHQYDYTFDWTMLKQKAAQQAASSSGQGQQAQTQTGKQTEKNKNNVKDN
Chain of UniProt Q9H4B4 (whole entry, looked up): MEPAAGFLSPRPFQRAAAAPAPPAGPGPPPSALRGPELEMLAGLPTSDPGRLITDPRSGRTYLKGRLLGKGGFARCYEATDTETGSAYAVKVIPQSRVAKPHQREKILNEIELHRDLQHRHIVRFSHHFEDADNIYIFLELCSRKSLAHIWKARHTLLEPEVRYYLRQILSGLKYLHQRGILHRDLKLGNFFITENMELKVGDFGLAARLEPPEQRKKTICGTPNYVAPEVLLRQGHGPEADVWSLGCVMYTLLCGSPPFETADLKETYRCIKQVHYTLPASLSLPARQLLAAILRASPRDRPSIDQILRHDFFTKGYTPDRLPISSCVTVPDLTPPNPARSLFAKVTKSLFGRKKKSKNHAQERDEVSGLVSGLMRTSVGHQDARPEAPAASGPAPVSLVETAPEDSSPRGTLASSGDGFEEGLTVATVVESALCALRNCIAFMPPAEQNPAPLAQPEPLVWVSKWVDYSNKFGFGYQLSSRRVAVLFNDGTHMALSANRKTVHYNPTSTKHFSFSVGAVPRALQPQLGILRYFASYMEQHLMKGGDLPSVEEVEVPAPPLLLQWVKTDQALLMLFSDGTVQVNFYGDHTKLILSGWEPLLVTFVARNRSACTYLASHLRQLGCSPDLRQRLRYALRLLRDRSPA
Chain of UniProt Q8N568 (whole entry, looked up): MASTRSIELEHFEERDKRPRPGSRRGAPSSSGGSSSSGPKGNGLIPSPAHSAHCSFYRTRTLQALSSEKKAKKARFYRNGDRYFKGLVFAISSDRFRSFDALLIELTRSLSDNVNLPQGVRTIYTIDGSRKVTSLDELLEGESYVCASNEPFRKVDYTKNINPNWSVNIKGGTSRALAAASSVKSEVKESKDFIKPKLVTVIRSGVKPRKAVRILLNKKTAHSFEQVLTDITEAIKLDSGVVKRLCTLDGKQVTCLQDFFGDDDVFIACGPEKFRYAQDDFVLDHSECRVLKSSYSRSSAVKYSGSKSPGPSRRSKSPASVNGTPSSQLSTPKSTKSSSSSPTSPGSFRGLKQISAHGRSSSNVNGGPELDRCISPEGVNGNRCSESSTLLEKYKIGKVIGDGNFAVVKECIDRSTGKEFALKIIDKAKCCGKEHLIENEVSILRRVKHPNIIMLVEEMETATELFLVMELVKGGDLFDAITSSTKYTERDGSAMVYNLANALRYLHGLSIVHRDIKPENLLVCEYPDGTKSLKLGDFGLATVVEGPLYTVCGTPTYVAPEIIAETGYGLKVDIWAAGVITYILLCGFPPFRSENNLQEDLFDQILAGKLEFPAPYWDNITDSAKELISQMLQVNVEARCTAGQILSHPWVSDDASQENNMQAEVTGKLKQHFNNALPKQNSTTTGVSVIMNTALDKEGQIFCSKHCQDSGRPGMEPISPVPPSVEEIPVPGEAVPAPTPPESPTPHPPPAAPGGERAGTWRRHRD
Chain of UniProt P06493 (whole entry, looked up): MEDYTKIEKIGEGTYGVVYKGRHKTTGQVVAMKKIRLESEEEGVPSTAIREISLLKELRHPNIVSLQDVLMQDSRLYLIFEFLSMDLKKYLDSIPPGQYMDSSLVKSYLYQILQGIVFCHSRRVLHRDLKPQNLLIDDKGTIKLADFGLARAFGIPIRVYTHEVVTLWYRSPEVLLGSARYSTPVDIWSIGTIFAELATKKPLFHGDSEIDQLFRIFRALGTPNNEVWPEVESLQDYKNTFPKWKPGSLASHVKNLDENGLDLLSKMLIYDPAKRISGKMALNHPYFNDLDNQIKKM
Chain of UniProt P68400 (whole entry, looked up): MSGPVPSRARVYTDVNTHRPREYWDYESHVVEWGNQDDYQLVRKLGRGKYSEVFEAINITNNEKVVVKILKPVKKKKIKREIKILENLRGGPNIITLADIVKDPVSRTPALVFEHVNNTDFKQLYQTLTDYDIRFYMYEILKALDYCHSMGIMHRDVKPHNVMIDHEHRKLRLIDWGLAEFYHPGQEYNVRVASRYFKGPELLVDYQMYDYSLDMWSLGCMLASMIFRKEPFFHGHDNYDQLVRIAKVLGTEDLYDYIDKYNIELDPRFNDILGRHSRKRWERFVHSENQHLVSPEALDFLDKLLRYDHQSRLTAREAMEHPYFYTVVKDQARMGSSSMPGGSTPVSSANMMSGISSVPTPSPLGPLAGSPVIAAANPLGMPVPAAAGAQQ

Set 1 — species: mouse; matrix: microsomes or S9; concentration: 2 µM; time: 0.5 h; endpoint: remaining compound
O=C1CC(c2ccccc2Cl)c2cc3c(cc2N1)CCC3 (stereo not drawn): 5.9%
N#Cc1nc(-c2ccccc2F)oc1NCC1CCCO1 (stereo not drawn): 9.17%
CN1CCC(C(=O)OC2CC(C)(C)Oc3ccc(Br)cc32)CC1=O (stereo not drawn): 1.86%
CCN(CC)C(=O)[C@@H]1C[C@@H](NC(=O)Cn2ccc3ccccc32)CN1C: 15.4%
COc1cc(NS(=O)(=O)c2ccc(-c3nnc(C4CCC4)o3)s2)cc(OC)c1: 1.41%
Cc1ccc2c(c1C)NC(=O)CC2c1c(F)cccc1Cl (stereo not drawn): 4.14%
CCO[C@@H]1CCC[C@H](CC(=O)c2cccs2)[C@H]1C(=O)c1cccs1: 0.827%

Set 2 — cell line: mouse MPNST tumor cells; technique: high-content nuclear imaging; item: cell number; concentration: 10 µM; time: 12 h; notes: mean of 2 replicates; reference: plate mean; reading: higher = more cells; endpoint: nuclei count
Clc1ccc(COC(Cn2ccnc2)c2ccc(Cl)cc2Cl)c(Cl)c1 (stereo not drawn): 3.22 z-score and 2.04 z-score
C/C(O)=C(\C#N)C(=O)Nc1ccc(C(F)(F)F)cc1: 0.364 z-score and -0.648 z-score
COc1ccc(C(=O)NCc2cccnc2)cc1C(=O)NCc1cccnc1: 1.91 z-score
CC(=O)OCC(=O)NCCCOc1cccc(CN2CCCCC2)c1: -0.0499 z-score
Cc1c(NC(C)C)c(=O)n(-c2ccccc2)n1C: 4.62 z-score
CNCC(O)c1ccc(O)c(O)c1 (stereo not drawn): 1.61 z-score
Cn1ccc2cc3c(cc21)CCN3C(=O)Nc1cccnc1: 1.28 z-score
N#CC(=Cc1cn(-c2ccccc2)c2ccccc12)C(=O)O: 0.257 z-score
Fc1ccc(C(c2ccc(F)cc2)N2CCN(C/C=C/c3ccccc3)CC2)cc1: 1.59 z-score and 1.96 z-score

Set 3 — read-out: cell-free assay; technique: competition with immobilised ligand; concentration: 1 µM; endpoint: remaining binding
Structure (SMILES): O=C(O)[C@H]1[C@H](Cn2nnc3ccccc3c2=O)CC[C@@H]1C(=O)c1ccc(OCCC2CCOCC2)cc1
Serine/threonine-protein kinase/endoribonuclease IRE1 (ERN1, Homo sapiens, UniProt O75460): 82%
Dual specificity protein kinase CLK2 (CLK2, Homo sapiens, UniProt P49760): 100%
Mitogen-activated protein kinase 12 (MAPK12, Homo sapiens, UniProt P53778): 93%
Serine/threonine-protein kinase LATS1 (LATS1, Homo sapiens, UniProt O95835): 84%
Ephrin type-B receptor 3 (EPHB3, Homo sapiens, UniProt P54753): 89%
Casein kinase II subunit alpha (CSNK2A1, Homo sapiens, UniProt P68400): 100%
Casein kinase I isoform alpha-like (CSNK1A1L, Homo sapiens, UniProt Q8N752): 100%

Set 4 — SMILES: Cc1ccc(S(=O)(=O)/C=C/C#N)cc1; read-out: enzyme activity; mode: inhibitor; concentration: 0.5 µM; reference: control; endpoint: remaining activity
Discoidin domain-containing receptor 2 (DDR2, Homo sapiens, UniProt Q16832): 96.4%
Dual specificity mitogen-activated protein kinase kinase 1 (MAP2K1, Homo sapiens, UniProt Q02750): 93.9%
Serine/threonine-protein kinase PLK3 (PLK3, Homo sapiens, UniProt Q9H4B4): 97.1%
Mitogen-activated protein kinase 1 (MAPK1, Homo sapiens, UniProt P28482): 100%
Calcium/calmodulin-dependent protein kinase type 1B (PNCK, Homo sapiens, UniProt Q6P2M8): 107%
Cyclin-dependent kinase 1, with cyclin A (CDK1, Homo sapiens, UniProt P06493): 96.7%
Mitogen-activated protein kinase 14 (MAPK14, Homo sapiens, UniProt Q16539): 97.4%
Rho-associated protein kinase 1 (ROCK1, Homo sapiens, UniProt Q13464): 93.2%
Serine/threonine-protein kinase PAK 3 (PAK3, Homo sapiens, UniProt O75914): 105%
cGMP-dependent protein kinase 2 (PRKG2, Homo sapiens, UniProt Q13237): 102%
Vascular endothelial growth factor receptor 2 (KDR, Homo sapiens, UniProt P35968): 94.7%
Serine/threonine-protein kinase Nek3 (NEK3, Homo sapiens, UniProt P51956): 108%
Serine/threonine-protein kinase DCLK2 (DCLK2, Homo sapiens, UniProt Q8N568): 96.1%

Excerpt of the above (set 4):
Serine/threonine-protein kinase PLK3 (PLK3, Homo sapiens, UniProt Q9H4B4): 97.1%
Mitogen-activated protein kinase 1 (MAPK1, Homo sapiens, UniProt P28482): 100%
Calcium/calmodulin-dependent protein kinase type 1B (PNCK, Homo sapiens, UniProt Q6P2M8): 107%
Cyclin-dependent kinase 1, with cyclin A (CDK1, Homo sapiens, UniProt P06493): 96.7%
Mitogen-activated protein kinase 14 (MAPK14, Homo sapiens, UniProt Q16539): 97.4%
